# Experimental data pooled from the literature.
# Lines come from different studies, so protocols differ. Numbers after ± are the reported error.
# serotonin receptor-like protein: serotonin receptor-like protein (Schistosoma mansoni, UniProt A0A173FEI8)
# sdiA: Regulatory protein SdiA (sdiA, Escherichia coli, UniProt P07026)
# UniProt P07026, sequence (whole entry, looked up): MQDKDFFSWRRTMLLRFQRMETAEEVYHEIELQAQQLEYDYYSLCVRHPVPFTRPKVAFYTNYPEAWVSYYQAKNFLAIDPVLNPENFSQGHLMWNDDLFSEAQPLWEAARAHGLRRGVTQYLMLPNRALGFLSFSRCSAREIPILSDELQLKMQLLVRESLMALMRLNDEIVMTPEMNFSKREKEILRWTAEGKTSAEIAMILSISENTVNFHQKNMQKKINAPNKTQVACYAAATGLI
# UniProt Q60893, sequence (whole entry, looked up): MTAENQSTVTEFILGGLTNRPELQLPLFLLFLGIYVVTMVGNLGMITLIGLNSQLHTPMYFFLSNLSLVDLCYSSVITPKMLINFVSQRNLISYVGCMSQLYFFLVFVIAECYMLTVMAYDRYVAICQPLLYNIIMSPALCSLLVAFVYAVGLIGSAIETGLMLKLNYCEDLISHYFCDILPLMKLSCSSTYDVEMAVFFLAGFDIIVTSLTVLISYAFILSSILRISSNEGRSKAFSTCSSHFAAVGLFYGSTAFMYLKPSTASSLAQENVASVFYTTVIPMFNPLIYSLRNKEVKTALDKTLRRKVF
# UniProt Q96RJ0, sequence (whole entry, looked up): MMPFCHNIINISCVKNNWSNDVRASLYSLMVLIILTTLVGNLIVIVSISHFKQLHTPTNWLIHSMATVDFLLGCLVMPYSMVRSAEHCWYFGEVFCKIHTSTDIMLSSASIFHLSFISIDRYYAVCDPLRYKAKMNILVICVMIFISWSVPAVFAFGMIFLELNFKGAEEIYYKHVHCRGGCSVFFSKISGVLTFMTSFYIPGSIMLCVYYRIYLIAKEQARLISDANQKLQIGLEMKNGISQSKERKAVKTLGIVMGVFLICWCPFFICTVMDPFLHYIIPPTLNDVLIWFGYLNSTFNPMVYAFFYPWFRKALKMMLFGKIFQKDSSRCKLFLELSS
# UniProt Q0P543, sequence (whole entry, looked up): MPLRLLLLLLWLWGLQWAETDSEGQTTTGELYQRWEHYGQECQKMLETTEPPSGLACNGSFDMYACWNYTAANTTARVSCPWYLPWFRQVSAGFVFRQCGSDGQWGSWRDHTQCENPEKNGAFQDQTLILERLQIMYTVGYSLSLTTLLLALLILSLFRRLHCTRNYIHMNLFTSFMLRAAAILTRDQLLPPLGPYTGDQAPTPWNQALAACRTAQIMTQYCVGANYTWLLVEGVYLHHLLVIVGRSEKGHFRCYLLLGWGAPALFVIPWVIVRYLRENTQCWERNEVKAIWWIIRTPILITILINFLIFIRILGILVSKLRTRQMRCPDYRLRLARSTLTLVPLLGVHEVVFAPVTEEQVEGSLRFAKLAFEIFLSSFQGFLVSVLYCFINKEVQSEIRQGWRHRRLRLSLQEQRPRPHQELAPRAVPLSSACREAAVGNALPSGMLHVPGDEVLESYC
SMILES,target or system,assay,system,setting,how to read,quantity,result
NCCc1c[nH]c2ccc(C(N)=O)cc12,serotonin receptor-like protein,"cAMP level, agonist, GloSensor luminescence",,,relative to: 5-HT maximal response,Emax,15 ± 1%
CN(C)Cc1ccc(-c2nc3cccc4c3n2CCNC4=O)cc1,human coronavirus OC43,virus-induced cell killing,MRC-5,maximum over 10 doses,,maximum inhibition,0%
COc1ccc(C=O)cc1,"Or8a1 (Mus musculus, UniProt Q60893)","odorant-evoked current, agonist",isolated olfactory neurons,,relative to: acetophenone saturated response,Emax,100 ± 5%
CCCCCCCCCCCCCCCC(=O)N[C@H]1CCOC1=O,sdiA,,,,,Emax,91.3%
Cc1cc(SCc2sc(-c3ccc(C(F)(F)F)c(F)c3)nc2C)ccc1OCC(=O)O,"Peroxisome proliferator-activated receptor delta (Rattus norvegicus, UniProt Q62879)","reporter gene, agonist, luciferase reporter",,rat receptor,relative to: internal maximal activation control,Emax,100%
CCCCCCCCCC(=O)NC1CCCC1,sdiA,,,,,Emax,102%
NCCc1ccc(O)cc1,"Trace amine-associated receptor 1 (TAAR1, Homo sapiens, UniProt Q96RJ0)",,,,,Emax,104 ± 0.2%
CC[C@H](C)[C@H](NC(=O)[C@H](CO)NC(=O)[C@H](Cc1ccc(O)cc1)NC(=O)[C@H](CC(=O)O)NC(=O)[C@H](CO)NC(=O)[C@@H](NC(=O)[C@H](Cc1ccccc1)NC(=O)[C@@H](NC(=O)CNC(=O)[C@H](CCC(=O)O)NC(=O)[C@H](C)NC(=O)[C@@H](N)Cc1ccc(O)cc1)[C@@H](C)O)[C@@H](C)CC)C(=O)N[C@@H](C)C(=O)N[C@@H](CCSC)C(=O)N[C@@H](CC(=O)O)C(=O)N[C@@H](CCCCN)C(=O)N[C@H](C(=O)N[C@@H](Cc1c[nH]cn1)C(=O)N[C@@H](CCC(N)=O)C(=O)N[C@@H](CCC(N)=O)C(=O)N[C@@H](CC(=O)O)C(=O)N[C@@H](Cc1ccccc1)C(=O)N[C@H](C(=O)N[C@@H](CC(N)=O)C(=O)N[C@@H](Cc1c[nH]c2ccccc12)C(=O)N[C@@H](CC(C)C)C(=O)N[C@@H](CC(C)C)C(=O)N[C@@H](C)C(=O)N[C@@H](CCC(N)=O)C(=O)N[C@@H](CCCCN)C(=O)NCC(=O)N[C@@H](CCCCN)C(=O)N[C@@H](CCCCN)C(=O)N[C@@H](CC(N)=O)C(=O)N[C@@H](CC(=O)O)C(=O)N[C@@H](Cc1c[nH]c2ccccc12)C(=O)N[C@@H](CCCCN)C(=O)N[C@@H](Cc1c[nH]cn1)C(=O)N[C@@H](CC(N)=O)C(=O)N[C@H](C(=O)N[C@H](C(=O)N[C@@H](CCC(N)=O)C(=O)O)[C@@H](C)O)[C@@H](C)CC)C(C)C)[C@@H](C)CC,"Gastric inhibitory polypeptide receptor (Mus musculus, UniProt Q0P543)","cAMP accumulation, agonist",mouse receptor-expressing cells,,,Emax,84%
NCCc1c[nH]c2ccccc12,serotonin receptor-like protein,"cAMP level, agonist, GloSensor luminescence",,,relative to: 5-HT maximal response,Emax,36 ± 6%
O=C(/C=C/c1ccc(O)c(O)c1)O[C@@H]1C[C@](O)(C(=O)O)C[C@@H](O)[C@H]1O,human coronavirus OC43,virus-induced cell killing,MRC-5,screen,,maximum inhibition,12.7%
O=C(CCc1ccc([N+](=O)[O-])cc1)N[C@H]1CCOC1=O,sdiA,,,,,Emax,102%

# Some of these lines once more:
SMILES,target or system,assay,system,setting,how to read,quantity,result
O=C(/C=C/c1ccc(O)c(O)c1)O[C@@H]1C[C@](O)(C(=O)O)C[C@@H](O)[C@H]1O,human coronavirus OC43,virus-induced cell killing,MRC-5,screen,,maximum inhibition,12.7%
